{"data": "Measurements of several laboratories", "note": "Each line is one published result; not all experiments were run side by side. ± gives the spread as reported."}
{"SMILES": "Cc1ccc(C(C)C)cc1.[Cl-].[Cl][Ru+].[Ru+].c1ccc(-c2cn(CCCCOc3ccccc3-c3nc4ccccc4s3)nn2)nc1", "cell line": "MCF7", "assay": "annexin V/PI flow cytometry", "conditions": "4 µM, 24 h", "measurement": "necrotic cells", "result": "5.73%"}
{"SMILES": "COc1ccc(C2=Nn3c(NN=C4C(=O)N(Cc5ccccc5)c5ccc(Cl)cc54)nnc3SC2)cc1", "cell line": "SK-MEL-5", "assay": "cell growth or viability, SRB", "conditions": "10 µM", "measurement": "inhibition", "result": "17%"}
{"SMILES": "COc1cc(CNC(=O)C[C@H](C)CCC=C(C)C)ccc1OCc1cn(-c2ccccc2Cl)nn1", "cell line": "SK-MEL-5 melanoma cells", "assay": "SRB", "conditions": "10 µM, 48 h", "measurement": "growth percent", "result": "5.29%"}
{"SMILES": "N=C(N/N=C/c1cc2ccccc2c2ccccc12)N/N=C/c1cc2ccccc2c2ccccc12", "cell line": "PANC-1", "assay": "crystal violet", "conditions": "72 h", "scale": "relative to: IC50 hTERT-HPNE over IC50 PANC-1", "measurement": "selectivity ratio", "result": 0.9}
{"SMILES": "COc1cc(CNC(=O)C[C@H](C)CCC=C(C)C)ccc1OCc1cn(-c2ccc(Cl)cc2Cl)nn1", "cell line": "SK-MEL-5 melanoma cells", "assay": "SRB", "conditions": "10 µM, 48 h", "measurement": "growth percent", "result": "60.4%"}
{"SMILES": "CC(C)NCC(O)COc1cccc2ccccc12 (racemic)", "cell line": "hiPSC cardiac tissues 3D", "assay": "active force", "conditions": "15 min per concentration, paced at 1 Hz serum-free", "measurement": "minimum effective concentration", "result": "3 µM"}
{"SMILES": "CC(=O)OC[C@H]1O[C@@H](Sc2sc(C(=O)c3ccc(C)cc3)c(N)c2-c2nc3ccccc3s2)[C@H](OC(C)=O)[C@@H](OC(C)=O)[C@@H]1OC(C)=O", "cell line": "NCI-H23", "assay": "SRB", "conditions": "10 µM, 48 h", "scale": "relative to: untreated", "measurement": "growth", "result": "56.1%"}
{"SMILES": "O=Cc1c(O)ccc2ccccc12", "cell line": "HUVEC", "assay": "RNA sequencing, measured: HIST2H2BE", "conditions": "75 µM, 24 h", "scale": "relative to: DMSO", "measurement": "log2 fold change", "result": 3.27}
{"SMILES": "COc1cc(CNC(=O)C[C@H](C)CCC=C(C)C)ccc1OCc1cn(-c2ccc(C#N)cc2)nn1", "cell line": "CAKI-1", "assay": "SRB", "conditions": "10 µM, 48 h", "measurement": "growth percent", "result": "62.6%"}
{"SMILES": "CCN(CC)C1CCN(Cc2cc(C#CCNC(=O)OC(C)(C)C)cc(I)c2O)CC1", "cell line": "NUGC-3 p53 Y220C", "assay": "caspase 3/7 apoptosis", "conditions": "6 h", "measurement": "onset concentration", "result": "100 µM"}
{"SMILES": "CC(=C(c1ccc(O)cc1)c1ccc(Cl)cc1)c1ccc(Cl)cc1", "cell line": "Ishikawa", "conditions": "1 µM, 72 h, unit not given", "scale": "relative to: DMSO", "measurement": "alkaline phosphatase activity", "result": "3.76 ± 1.41"}
{"SMILES": "COc1cc(CN2CCN(c3ccccc3Cl)CC2)c2cc3[n+](cc2c1O)CCc1cc2c(cc1-3)OCO2", "cell line": "Ca-Ski and MDCK", "assay": "SRB", "conditions": "48 h", "scale": "relative to: CC50 MDCK over IC50 Ca-Ski", "measurement": "therapeutic index", "result": 34}
{"SMILES": "COc1cc(CNC(=O)C[C@H](C)CCC=C(C)C)ccc1OCc1cn(-c2ccc([N+](=O)[O-])cc2)nn1", "cell line": "KM12", "assay": "SRB", "conditions": "10 µM, 48 h", "measurement": "growth percent", "result": "86.8%"}
{"SMILES": "Cc1c(C)n(-c2c(C(C)C)cccc2C(C)C)c(=[Se])n1-c1c(C(C)C)cccc1C(C)C.[Cl][Au]", "cell line": "LoVo-OXP (oxaliplatin-resistant)", "assay": "MTT", "conditions": "72 h", "measurement": "IC50", "result": "900 ± 300 nM"}
{"SMILES": "C=C1[C@H](O)CC(=C/C=C2\\CCC[C@]3(C)[C@@H]([C@H](C)CCCCO)CC[C@@H]23)C[C@H]1O", "cell line": "rat osteosarcoma cells", "assay": "reporter gene, luciferase, measured: CYP24A1 (24-hydroxylase) promoter", "scale": "relative to: compound over 1α,25-dihydroxyvitamin D3", "measurement": "EC50 ratio", "result": 20}
{"SMILES": "COc1ccc(C=C2SC(N3N=C(c4cccs4)CC3c3ccc(F)cc3)=NC2=O)cc1 (centres unmarked)", "cell line": "T47D", "assay": "annexin V-FITC/PI flow cytometry", "conditions": "concentration not given", "measurement": "late apoptotic cells", "result": "19%"}
{"SMILES": "O=C(NCCCNc1n[n+]([O-])c2ccccc2[n+]1[O-])C(F)(F)F", "cell line": "HUVEC and fibroblast co-culture", "conditions": "2 µM, 264 h", "measurement": "tube formation reduction", "result": "10 to 22%"}
{"SMILES": "O=C1c2c(O)cc(O)cc2-c2c(-c3ccc(O)cc3)oc3cc(O)cc1c23", "cell line": "LCC2 CHIP shRNA knockdown", "assay": "label-free MS proteomics", "conditions": "10 µM, 24 h", "measurement": "downregulated protein count", "result": 297}
{"SMILES": "COc1cc(CNC(=O)C[C@H](C)CCC=C(C)C)ccc1OCc1cn(-c2cccc(Cl)c2)nn1", "cell line": "TK-10", "assay": "SRB", "conditions": "10 µM, 48 h", "measurement": "growth percent", "result": "99.8%"}
{"SMILES": "O=C(/C=C/c1ccccc1Cl)NO", "cell line": "SK-N-BE(2)-C", "assay": "flow cytometry", "conditions": "5.0 µM, unit not given", "scale": "relative to: control", "measurement": "LysoTracker signal", "result": "1.5 ± 0.24"}
{"note": "Repeated from above:"}
{"SMILES": "COc1cc(CNC(=O)C[C@H](C)CCC=C(C)C)ccc1OCc1cn(-c2ccc(C#N)cc2)nn1", "cell line": "CAKI-1", "assay": "SRB", "conditions": "10 µM, 48 h", "measurement": "growth percent", "result": "62.6%"}
{"SMILES": "CCN(CC)C1CCN(Cc2cc(C#CCNC(=O)OC(C)(C)C)cc(I)c2O)CC1", "cell line": "NUGC-3 p53 Y220C", "assay": "caspase 3/7 apoptosis", "conditions": "6 h", "measurement": "onset concentration", "result": "100 µM"}
